# Published values from different studies.
# Every numbered part comes from another study and shows a few of its results, in no order. Substitutions count along the parent as printed.

# Block 1 — method: RNA Bind-n-Seq; molecule type: RNA; matrix: in vitro; tested at: 365 nM; relative to: no-protein control; reading: higher = stronger binding
# Target: RNA binding protein fox-1 homolog 2, RRM domain, GST-SBP tag (RBFOX2, Homo sapiens, UniProt O43251-10, residues 100-194)
# Notes: natural RNA segment, single round, ends assumed
# Shared flanks, not repeated: GGGAGUUCUACAGUCCGACGAUC … UGGAAUUCUCGGGUGCCAA
# Residues (chain): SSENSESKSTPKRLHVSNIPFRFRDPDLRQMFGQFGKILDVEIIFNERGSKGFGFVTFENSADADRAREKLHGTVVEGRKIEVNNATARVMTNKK
Sequence,RBNS enrichment (R)
UGUUUUGCUGGCACAUUAAUCAUAGAUAAAGAAAGAUUGAUGGACUUAGCCCUCAAAUUUCAGUAUCUAUACAGUACUAGACCAUGCAUUCUUAAAAUAUUAGAUACCAG,0.273
AGAAAUAGUGUUGGGAGGGAACCUGUCUAGUAACAGAGCUAGCAAAUGUCCAGGCUGGUGAAGAUCCGCUGAGCAAGAGCCCUGGUGUGGGGAAAGGGAGGUCAGAGUAC,1.23
CUUUAGGCCAACUCUGUCUUGGCUGAUAACUCUUACAAUGCACGUUACUAACUUGGUGUCGCUACCCAGGACACAUUGUCUACAGUAAAUGGAAUGUGAGCCACAUCUGU,4.99
UAAUAUACAGAGCAUUUUGACUUCUAAAUAGUUAGAUCCAGAGAUGAAGUGCACUGUUCUCUCUUCAUUACGGUCCUGUUUAAGAGCCCAGCUAGUCUAUCUGAGCUCUC,0.473
AGAAAGAAAAACAUUCAACUUUAGCUGAAGCUCCUUUGAUACAAAAGUUUCAUUCUGUCAGAAAUAAGCCAUAGUACAGACUCAGAGAUAGAGGCAGUUUCUAGAGAACU,0.574
GUACUAUUUAGCUUCAGUGUACUAGUCCUGCCACCUGUGUAUUUUUAGGGUGCUAUGGAAAUAAUGAAAAGAAACGGGGAUUUCAGAAGAAAAUUGUAACCAAAUUCAUA,0.665
UUUUCAAGUUUUACAGAAGCAGAGCUUUUCCCUAAGUUCCUCUUCGGUUCACUGUAGAUCCAGUUCUUCCAGCCGCUUCAGCACUGAGGCGCCAUGAAUGCGGUUUCUCU,0.279
AGUCAAAAGCAAGCUGGGUUUGCAGCCCACUCCAGCCCAUGGCCUGUUGCCCAGCUCUGUAGACAUCCCUGCUCCCCAGCUGCCCAAAGACCCCCUCCCCAUUGAUGCCA,0.679
GGCAGACAUGGCCCACAUCAGUGGCCUGGUGGCUGCCAAGGUGAUUCCCUCGCCUUUCAAGCACGCGGACAUCGUCACCACCACUACUCACAAGACUCUUCGAGGGGCCA,0.669
UCAAGUGUGCCCACCCUGCAGUCUUCAUCCUCACUCAGCUGCUGCCUCUGGAGGUGCCUUUGGCCACAUGUGCUGUGCUGUUUGUCUCCUCGACAGGGAGCCUGUCCACC,0.342
GAGGCUUUUAGCUGAGUCCAGGUAUAAAUUAGCCAUAAACAGUCAAUGACCCACAGUAGUCUUUAGUAAACUGUUGAGAAAUCUGGGUAAAAGGCUGCCUUCAAUUCUAA,0.367
GUAUGGUCCGUGUAGAUUGAUGCAGAUUUUCUGAAAUGAAAUGUUUGUUUAGACGAGAUCAUACCGGUAAAGCAGGAAUGACAAAGCUUGCUUUUCUGGUAUGUUCUAGG,0.373

# Block 2 — method: universal PBM; molecule type: double-stranded DNA, one strand shown; matrix: in vitro; tested at: not given; reading: higher = stronger binding
# Target: Sal-like protein 4, full length isoform B (SALL4, Homo sapiens, UniProt Q9UJQ4-2, residues 1-616)
# Notes: 8-mer, flanks averaged, mean of replicates
# Residues (chain): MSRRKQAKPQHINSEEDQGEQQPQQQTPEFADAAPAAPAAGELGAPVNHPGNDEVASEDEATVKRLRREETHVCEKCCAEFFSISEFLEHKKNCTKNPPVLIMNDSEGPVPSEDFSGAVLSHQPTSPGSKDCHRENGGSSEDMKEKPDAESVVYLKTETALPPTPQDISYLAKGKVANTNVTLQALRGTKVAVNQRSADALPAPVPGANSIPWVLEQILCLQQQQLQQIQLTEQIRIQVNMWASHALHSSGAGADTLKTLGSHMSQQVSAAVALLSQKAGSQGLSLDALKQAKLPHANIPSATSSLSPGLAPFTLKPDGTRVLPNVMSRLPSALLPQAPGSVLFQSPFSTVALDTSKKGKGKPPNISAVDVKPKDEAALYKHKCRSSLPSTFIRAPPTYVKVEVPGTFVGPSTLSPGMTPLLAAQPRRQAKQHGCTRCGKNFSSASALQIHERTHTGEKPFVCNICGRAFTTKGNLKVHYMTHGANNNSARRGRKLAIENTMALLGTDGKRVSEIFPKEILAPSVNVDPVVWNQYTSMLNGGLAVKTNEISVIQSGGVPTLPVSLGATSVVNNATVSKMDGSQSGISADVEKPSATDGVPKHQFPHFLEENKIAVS
Sequence,E-score
GAGATATC,0.108
CACGGTCA,-0.133
CTTTACGC,0.0699
CCCACGTA,-0.026
GGCACACC,-0.328
ATGTTCGC,0.0668
AGAAGACC,-0.159
GGACAAAC,-0.0506
GTTACAAC,0.0793
ATGCACTC,-0.0126
AGGGTTTG,-0.127
AGTGGGGC,-0.404
TCTAAGAA,0.1
ATGGCCTG,-0.182
GGGAGCAA,-0.163
ATGTCACA,0.189
ATGATTAG,0.209
GAGCCCCA,-0.27
ACGGTGCT,-0.188

# Block 3 — target: CCNB2, cyclin fold, Cln2 fusion (human); method: yeast growth competition, sequencing; matrix: yeast; notes: weak parent motif; relative to: not given; reading: higher = stronger binding
# Starting sequence: RBL1 docking peptide (human); GSAKRRLFGEDPP
Change,normalised enrichment score
F8A,0.214
R5N,-0.212
G1P,-0.0631
A3N,-0.271
E10D,0.299
A3R,0.231
G9N,0.634
E10Q,-0.215
K4P,-0.122
P13R,0.0837
R6H,-0.143
R5Y,-0.325
F8P,0.212
E10H,0.737
G1L,0.542
L7I,0.666
F8W,-0.267
P13V,0.793
G9Q,0.0782
K4V,-0.0618

# Block 4 — method: aptamer microarray, sandwich; molecule type: DNA with 2'F-ANA; matrix: in vitro; tested at: 200 nM; with: Cy3 exosite-II aptamer, 400 nM; reading: higher = stronger binding; sequence: GGTTGGTGTGGTTGG
# Target: Prothrombin, mature alpha-thrombin (F2, Homo sapiens, UniProt P00734)
# Notes: whole 15-mer aptamer, many near background
Modification,mean fluorescence intensity
2'F-ANA at 4 5 8 9 11 12 13 14 15,76.5 a.u.
2'F-ANA at 8 9 10 11 13,121 a.u.
2'F-ANA at 1 7 8 9 10 12 13,69.4 a.u.
2'F-ANA at 1 2 5 7 9 10 14 15,48.6 a.u.
2'F-ANA at 4 10 12 14,60.4 a.u.
2'F-ANA at 1 4 6 7 10 11 12 14 15,45.7 a.u.
2'F-ANA at 3 5 8 11 14 15,59 a.u.
2'F-ANA at 1 4 8 9 10 11 13,45.2 a.u.
2'F-ANA at 3 4 5 8 10 11 12,55.9 a.u.
2'F-ANA at 1 3 4 5 6 8 10 14,69.3 a.u.
2'F-ANA at 1 2 4 6 7 10 12 15,59.6 a.u.
2'F-ANA at 1 2 6 11 12 13 15,234 a.u.
2'F-ANA at 2 5 6 7 13 14,60.3 a.u.
2'F-ANA at 3 8 9 13 14,617 a.u.
2'F-ANA at 3 5 6 7 8 11 12 13,271 a.u.
2'F-ANA at 2 4 5 6 7 8 12 13 14 15,50.3 a.u.
2'F-ANA at 3 4 6 7 9 11 12 14,250 a.u.
2'F-ANA at 1 2 4 6 9 11 12 13 14 15,53.9 a.u.
2'F-ANA at 1 6 7 9 10 11 13,54.7 a.u.
2'F-ANA at 1 2 6 9 11 13,119 a.u.
2'F-ANA at 3 5 7 10 13 15,58.7 a.u.
2'F-ANA at 1 4 7 12 13,212 a.u.
2'F-ANA at 2 3 5 7 11 12 15,153 a.u.
2'F-ANA at 1 3 4 6 8 10 14,56.3 a.u.
2'F-ANA at 1 3 4 5 7 13 15,111 a.u.

# Block 5 — method: protein binding microarray; molecule type: double-stranded DNA, one strand shown; matrix: in vitro; tested at: not given; relative to: not given; reading: higher = stronger binding
# Target: Histone acetyltransferase KAT6A, winged helix 1, GST fusion (KAT6A, Homo sapiens, UniProt Q92794, residues 1-85)
# Notes: 8-mer, flanks averaged, mean of 2 arrays, mostly near background
# Target sequence (chain): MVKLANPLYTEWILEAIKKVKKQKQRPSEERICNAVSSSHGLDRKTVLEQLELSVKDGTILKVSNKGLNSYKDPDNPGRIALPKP
Sequence,E-score
AGGTTCAT,-0.145
CATTCAAA,-0.081
GCGTCACC,0.162
CGCCACTC,0.165
GATGGTGC,-0.117
GGGAACAA,0.021
AAACAGGG,-0.0741
TAAAGGGA,-0.00936
AGAGTGTG,-0.138
ACCATTTA,-0.0634
GAGTAGCA,-0.0888
GAGTGGGA,-0.136
CGCGCCTC,0.36
AAGGGCTC,-0.0817
ATCTTCTC,-0.144
ACGATACC,0.000205
AGTTAGTA,-0.0957
AAATAGGC,0.00396
ATTTTTAG,-0.0492
GCGCAAAC,0.288
ACGGCCCA,0.259
CCTATCAC,-0.178
GAACTTGC,-0.11
CAGGGTAG,-0.139
AGCCTGGA,-0.143

# Block 6 — method: protein-binding microarray; molecule type: double-stranded DNA, one strand shown; matrix: in vitro; tested at: 250 nM; notes: 60-bp whole probe; with: salmon DNA 0.4 mg/ml; relative to: random background probes; reading: higher = stronger binding; shared flanks, not repeated: GCCTAGCAC … GTCTTGATTCGCTTGACGCTGCTG
# Target: Interferon regulatory factor 5, full length, phosphomimetic (IRF5, Homo sapiens, UniProt Q13568-2, residues 1-514, K96S/S451D/S453D/S456D/S462D)
Sequence,log fluorescence [z-score]
TCATTTTTTTTTTTTGGACTGTGCTAG,0.712
TTAGATATCGGGTTTCGAGTAGTGCTA,4.84
GACGAACTGGGACTGGGGACGTGCTAG,-0.52
GACGATATCAGTTTCGCGACGTGCTAG,3.15
GGAGGGGGGCGGGGCGGTGGGTGCTAG,2.82
ATAAACTTAGTTTTCAATTTGTGCTAG,1.41
GACGGTATCGGTTTCGGGAGGTGCTAG,8.41
GACGGTTTCGACAGTGGGGACGTGCTA,4.48
TTAGATATCAGACTGGGTTAGTGCTAG,0.163
TCACTGCTACCCTTTGAAACTGTGCTA,0.236
TTAGATTCCAGTTTCGATCAGTGCTAG,9.36
GACGATCTCAGTCACGAGACGTGCTAG,-0.123
GACGGTGTCGACACTGGGGACGTGCTA,-0.368
CACGGTTTCCTTTTCCTGACGTGCTAG,1.25
TTAGATTTCAGTCTCGATAAGTGCTAG,2.99
TTAGATATCAGTATCGAATAGTGCTAG,3.8

# Repeated from above (block 6):
Sequence,log fluorescence [z-score]
TCATTTTTTTTTTTTGGACTGTGCTAG,0.712
TTAGATATCGGGTTTCGAGTAGTGCTA,4.84
GACGAACTGGGACTGGGGACGTGCTAG,-0.52
GACGATATCAGTTTCGCGACGTGCTAG,3.15
GGAGGGGGGCGGGGCGGTGGGTGCTAG,2.82
ATAAACTTAGTTTTCAATTTGTGCTAG,1.41
GACGGTATCGGTTTCGGGAGGTGCTAG,8.41
GACGGTTTCGACAGTGGGGACGTGCTA,4.48
